{"data": "Measured values of several laboratories", "note": "Numbered parts are unrelated; each lists some results of a single study. Positions count from the first letter of the parent shown."}
{"data": "Set 1", "target": "Fragile X messenger ribonucleoprotein 1, C-terminal low-complexity region (Fmr1, Mus musculus, UniProt P35922)", "method": "RNA Bind-n-Seq", "molecule type": "RNA", "sample": "in vitro", "concentration": "200 nM", "setting": "whole 134-nt RNA, ends assumed", "with": "150 mM LiCl", "reference": "input library", "direction": "higher = stronger binding", "each molecule": "7-deaza-guanosine replaces G", "constant ends, left off below": "GGGAGUUCUACAGUCCGACGAUC … UGGAAUUCUCGGGUGUCAAGG"}
{"Sequence": "UCAAGUCCUGUGCUACACAUCGUAUGUACCGAAUCGGGGCCGGGGCCGGCCGGGAAAGUAUUAUGUUACGCCGUUCGGAUCUGCACUUCC", "log2 enrichment": -0.0539}
{"Sequence": "GAAAUUGAACCAGCAGCGAUGAAAGCAGCAGCUGCUGCCCCUGCCUCAGAGGAUGAGGACGAUGAGGAUGACGAAGAUGAUGAGGAUGAC", "log2 enrichment": -1.41}
{"Sequence": "UUGUGGCUGAGAGACAGUUUGCAAAGGAACAACAUACAGAUGGGACACUAAAGGAAGUUGGAGAAGAUUAUCAAAUCGCAAUCCCAGAUU", "log2 enrichment": 1.01}
{"Sequence": "UCAAGUCCUGUGCUACACAUCGUAUGUACCGAAUCGGUUUUUGGUGGUUUUUGGAAAGUAUUAUGUUACGCCGUUCGGAUCUGCACUUCC", "log2 enrichment": -0.693}
{"Sequence": "CACAGACAACACACACCCACACAGACACAGAGGGAAGGGGUUGGGAUGGGGACAGGGUGCACAGCAGGGCGGGGUAGGACCCCAGCCCCU", "log2 enrichment": 0.103}
{"Sequence": "AGUCCUGUGCUACACAUCGUAUGUACCGAAUCGGGGAGGGGAAAAAAAGGGGUGGGGAAAGUAUUAUGUUACGCCGUUCGGAUCUGCACU", "log2 enrichment": -0.0153}
{"Sequence": "UAACUUUAGAGGAGGAUCUGAUGGAUAUGGCAGUGGACGUGGAUUUGGGGAUGGCUGUAAUGGGUAUGGAGGAGGACCUGGAGGUGGCAA", "log2 enrichment": 1.16}
{"Sequence": "UUCAAAACAGAAUCCUUCCAGUCCUCUUCAGCGUUUAAUUCCAGGCUCAAACUUGGACAGUGAACCCAGAAUUCAAACAGAUAUACUAAA", "log2 enrichment": 1.49}
{"data": "Set 2", "target": "ABI1, truncated, D143A, DHFR fusion (Arabidopsis thaliana)", "method": "DHFR PCA, deep sequencing", "sample": "yeast", "setting": "methotrexate growth selection, single substitutions", "with": "(+)-ABA 17 µM", "reference": "wild-type fitted maximum", "direction": "higher = stronger binding", "starting sequence": "PYL1, truncated, DHFR fusion (Arabidopsis thaliana); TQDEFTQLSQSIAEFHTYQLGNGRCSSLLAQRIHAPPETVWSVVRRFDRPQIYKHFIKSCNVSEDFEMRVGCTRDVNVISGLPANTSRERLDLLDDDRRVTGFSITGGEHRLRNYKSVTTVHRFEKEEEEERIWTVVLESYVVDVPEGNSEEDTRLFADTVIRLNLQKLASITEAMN; partner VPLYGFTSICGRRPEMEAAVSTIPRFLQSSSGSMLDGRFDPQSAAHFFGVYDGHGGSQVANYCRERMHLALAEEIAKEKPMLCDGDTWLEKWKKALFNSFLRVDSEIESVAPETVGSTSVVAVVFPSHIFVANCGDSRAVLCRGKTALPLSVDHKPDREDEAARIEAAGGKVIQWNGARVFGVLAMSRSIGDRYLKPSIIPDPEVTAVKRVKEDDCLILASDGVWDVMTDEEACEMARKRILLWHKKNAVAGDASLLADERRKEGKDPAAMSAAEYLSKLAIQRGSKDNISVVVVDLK"}
{"Change": "D96Y", "relative binding score [%]": 11.1}
{"Change": "P146A", "relative binding score [%]": 62.1}
{"Change": "H16N", "relative binding score [%]": -3.02}
{"Change": "L20N", "relative binding score [%]": 84.4}
{"Change": "P50V", "relative binding score [%]": 1.38}
{"Change": "T86N", "relative binding score [%]": 81.6}
{"Change": "V142A", "relative binding score [%]": 75.3}
{"Change": "L28I", "relative binding score [%]": 80.2}
{"Change": "T39V", "relative binding score [%]": 88.8}
{"Change": "E151H", "relative binding score [%]": 70.4}
{"Change": "M176N", "relative binding score [%]": 72.3}
{"Change": "E4R", "relative binding score [%]": 60.3}
{"Change": "N85G", "relative binding score [%]": 72.2}
{"Change": "H122A", "relative binding score [%]": 13.3}
{"Change": "L93F", "relative binding score [%]": 75.4}
{"Change": "S140A", "relative binding score [%]": -10.6}
{"data": "Set 3", "target": "CCNE2, cyclin fold, Cln2 fusion (human)", "method": "yeast growth competition, sequencing", "sample": "yeast", "setting": "weak parent motif", "reference": "not given", "direction": "higher = stronger binding", "starting sequence": "PKMYT1 docking peptide (human); SFEPRNLLSLFED; partner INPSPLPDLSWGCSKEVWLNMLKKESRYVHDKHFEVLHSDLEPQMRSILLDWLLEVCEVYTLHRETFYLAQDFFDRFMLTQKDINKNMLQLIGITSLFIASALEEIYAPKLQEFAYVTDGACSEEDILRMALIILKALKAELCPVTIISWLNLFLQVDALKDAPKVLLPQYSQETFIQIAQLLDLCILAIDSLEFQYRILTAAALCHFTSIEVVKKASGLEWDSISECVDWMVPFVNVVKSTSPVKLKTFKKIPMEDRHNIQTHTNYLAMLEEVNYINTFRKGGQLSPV"}
{"Change": "SFELRNLLSLFED [P4L]", "normalised enrichment score": 0.173}
{"Change": "SIEPRNLLSLFED [F2I]", "normalised enrichment score": -0.95}
{"Change": "SFEPMNLLSLFED [R5M]", "normalised enrichment score": 0.535}
{"Change": "SFFPRNLLSLFED [E3F]", "normalised enrichment score": 0.42}
{"Change": "SFEPRNLLLLFED [S9L]", "normalised enrichment score": 0.507}
{"Change": "SFEPRTLLSLFED [N6T]", "normalised enrichment score": -0.0184}
{"Change": "SFEPRLLLSLFED [N6L]", "normalised enrichment score": 0.116}
{"Change": "SFEPRNLLSLFSD [E12S]", "normalised enrichment score": -0.142}
{"Change": "SFEPRNLLSGFED [L10G]", "normalised enrichment score": -0.306}
{"Change": "SFEPRNLLSLFMD [E12M]", "normalised enrichment score": 0.23}
{"Change": "SFEPRNLLSLFEM [D13M]", "normalised enrichment score": 0.677}
{"Change": "SFEWRNLLSLFED [P4W]", "normalised enrichment score": -0.0284}
{"Change": "SFEPRNLLSLVED [F11V]", "normalised enrichment score": 0.13}
{"Change": "SFEPRNLLSLFEW [D13W]", "normalised enrichment score": -0.357}
{"Change": "SFEPRNLVSLFED [L8V]", "normalised enrichment score": -0.463}
{"Change": "SFEPRQLLSLFED [N6Q]", "normalised enrichment score": 0.272}
{"Change": "SFEPPNLLSLFED [R5P]", "normalised enrichment score": -0.495}
{"Change": "SFEPRNLRSLFED [L8R]", "normalised enrichment score": 0.467}
{"Change": "SFEPRNLLSLAED [F11A]", "normalised enrichment score": -0.216}
{"data": "Set 4", "target": "Interferon regulatory factor 3, full length, phosphomimetic (IRF3, Homo sapiens, UniProt Q14653, residues 1-427, S386D/S396D/S398D/S402D/T404D/S405D)", "method": "protein-binding microarray", "molecule type": "double-stranded DNA, one strand shown", "sample": "in vitro", "concentration": "2540 nM top", "setting": "60-bp whole probe", "with": "salmon DNA 0.4 mg/ml", "reference": "random background probes", "direction": "higher = stronger binding", "constant ends, left off below": "GCCTAGCAC … GTCTTGATTCGCTTGACGCTGCTG", "Construct (chain)": "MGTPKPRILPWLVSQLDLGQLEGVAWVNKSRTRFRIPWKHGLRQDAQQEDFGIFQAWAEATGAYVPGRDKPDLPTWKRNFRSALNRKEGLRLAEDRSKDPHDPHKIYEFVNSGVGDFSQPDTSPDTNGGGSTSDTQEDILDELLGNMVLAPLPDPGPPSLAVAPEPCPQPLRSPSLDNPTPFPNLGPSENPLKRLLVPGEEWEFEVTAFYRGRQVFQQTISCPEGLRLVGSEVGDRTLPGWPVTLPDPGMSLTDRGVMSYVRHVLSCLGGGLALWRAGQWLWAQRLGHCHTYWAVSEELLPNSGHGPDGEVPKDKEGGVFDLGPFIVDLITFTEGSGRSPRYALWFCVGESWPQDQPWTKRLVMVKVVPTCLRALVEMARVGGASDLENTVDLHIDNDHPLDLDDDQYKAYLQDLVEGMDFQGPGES"}
{"Sequence": "GACGAACTGGGGACTGGAGACGTGCTA", "fitted relative affinity": "-0.537 z-score"}
{"Sequence": "TTAGATTCCAGTTTTGATTAGTGCTAG", "fitted relative affinity": "2.94 z-score"}
{"Sequence": "GACGGTTTCGGTTTCGGGGCGTGCTAG", "fitted relative affinity": "10.5 z-score"}
{"Sequence": "CGGAATTTCCCTCTGCTCCTGTGCTAG", "fitted relative affinity": "2.13 z-score"}
{"Sequence": "CATTATTTCAATGCAAGGTGGTGCTAG", "fitted relative affinity": "0.898 z-score"}
{"Sequence": "GACGAACTGGGGTTTCCAGACGTGCTA", "fitted relative affinity": "0.805 z-score"}
{"Sequence": "TCTCATTCCAATTCTTTTTATGTGCTA", "fitted relative affinity": "1.97 z-score"}
{"Sequence": "GCCCCTCTCCTCTCAGGAGCTGTGCTA", "fitted relative affinity": "0.687 z-score"}
{"Sequence": "TTAGGTATCGACCTTCGGTTAGTGCTA", "fitted relative affinity": "0.351 z-score"}
{"Sequence": "CCCAATCTCTCTTCACATATGTGCTAG", "fitted relative affinity": "2.03 z-score"}
{"Sequence": "TTAGGTCTCCTATTGCTTTAGTGCTAG", "fitted relative affinity": "1.26 z-score"}
{"Sequence": "GACGGACTGGGACTGAGGACGTGCTAG", "fitted relative affinity": "-0.916 z-score"}
{"Sequence": "TTAGATATCGGGATTCGATTAGTGCTA", "fitted relative affinity": "0.505 z-score"}
{"Sequence": "TTAGATATCGGGTTTAGATTAGTGCTA", "fitted relative affinity": "0.399 z-score"}
{"Sequence": "GTCGATATCGGGACTGGAGACGTGCTA", "fitted relative affinity": "1 z-score"}
{"Sequence": "GACGAGATCAGACTGGAGACGTGCTAG", "fitted relative affinity": "-0.181 z-score"}
{"Sequence": "GACGATCTCAGTTTCGACACGTGCTAG", "fitted relative affinity": "2.38 z-score"}
{"Sequence": "TCAAGGATGGTTTTCAGACTGTGCTAG", "fitted relative affinity": "0.357 z-score"}
{"Sequence": "GACGAACTGGGGACGGGAGACGTGCTA", "fitted relative affinity": "-0.216 z-score"}
{"note": "Some of these lines once more (set 3):"}
{"Change": "SFEPRNLLSGFED [L10G]", "normalised enrichment score": -0.306}
{"Change": "SFEPRNLLSLFMD [E12M]", "normalised enrichment score": 0.23}
{"Change": "SFEPRNLLSLFEM [D13M]", "normalised enrichment score": 0.677}
{"Change": "SFEWRNLLSLFED [P4W]", "normalised enrichment score": -0.0284}
{"Change": "SFEPRNLLSLVED [F11V]", "normalised enrichment score": 0.13}
{"Change": "SFEPRNLLSLFEW [D13W]", "normalised enrichment score": -0.357}
{"Change": "SFEPRNLVSLFED [L8V]", "normalised enrichment score": -0.463}
{"Change": "SFEPRQLLSLFED [N6Q]", "normalised enrichment score": 0.272}
{"Change": "SFEPPNLLSLFED [R5P]", "normalised enrichment score": -0.495}
